Assay results collected from several papers.
A part holds a random share of what one study measured.

Block 1
Target: RNA binding protein fox-1 homolog 2, RRM domain, GST-SBP tag (RBFOX2, Homo sapiens, UniProt O43251-10, residues 100-194)
Technique: RNA Bind-n-Seq
Form: RNA
Sample: in vitro
Tested at: 365 nM
Setting: natural RNA segment, single round, ends assumed
Reference: no-protein control
Reading: higher = stronger binding
Quantity: RBNS enrichment (R)
Constant ends, left off below: GGGAGUUCUACAGUCCGACGAUC … UGGAAUUCUCGGGUGCCAA
Construct (chain): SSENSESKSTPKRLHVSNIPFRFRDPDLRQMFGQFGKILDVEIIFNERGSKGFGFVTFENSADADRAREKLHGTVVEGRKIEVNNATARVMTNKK
CAAGAACUUGUUAACCCUCCCUUAGCCCCUGCCCAUCCAAAGCUGGGCACACGCCUCAGAGCUGCCACAUGCUAGGGACAAACGCUACUGCCACAGGAAAACAGUGGUAG: 0.306
UGCCUGGACAGAUGGCUUGUCCCAAGGCCAGGACACACACUUUAAAAUCCAACAUUCACCUAAGCAAGUAAUUCUUAAAGAUCUUACAGAAACGCAGAGUCAAUCAGGUU: 0.376
GUGGAGGUAAUGCAUCUGAGCCAUCUGGGAAAGAUGUGGACGAUGUCCAGGAGAAACCUAAAGACAUAAUACAGUUCACUGCCGAGAAGCUCUCUGUGGGGGAAGUGUCA: 0.607
AAUAGAAGUAUUAAAAAGAAUCAUCCUUUAAAUCACAGAUCUUAUUUUGAGAUUAAAAAAAAUACUUCUAGCUUUAGCCAGGUGUGCAUGUUGCUGCCAUUUUGCAUUUU: 3.39
CUUCUGCACCAACUCACCUGGCCGCUAAGUUGCUGAUGGGUAGUACCUGUACUAAACCACCUCAGAAAGGAUUUUACAGAAACGUGUUAAAGGUUUUCUCUAACUUCUCA: 0.245
UUAUUUUAAAUGCAAUCAGGUAGUGUUGCUUUUUACAGCAUAAUAAAUAUAUGUAUCAAAAAAAAAACUGUGUGGAAAAAAUGAAUUUUCUUAAAACAAUUAAGAGCCAG: 0.942
AAAGCUUUUAAAUCUUGCCUUCUUUCUUCUGUACUUUGUCUUUUUAAAAUCUCAUUACUAUCUAUUAUUUAGUUCUAACACAGAAGCUUUAAAAAUACAUAGUCAUCCAA: 0.43
AGCAAGUGGUGCUUCCUUCUCAGCACGUCUCUAGGAAGCAUGGACACCCGAGUGUGGCUUUUCUCAAAGAAAGGUGAAGAAGGGGCCUCAGUUCUUACAGUGGGGACCAC: 9.23
GUUCCGUGCUUGCCAACCUAGACCCUGGCAUUAGAAAUUGUUUUGUCAGCAGUCUCUGCCCUCUCGAGAGAGAUGAGCAGCCUCAACUGACGUUUCUAUUAAUGAGUUAU: 0.264
CUAGAACCACCUGCACCUUGAGAUGUUUCUGUAAAUGGGUACUUGUGAUCACACUACGGGAAUCUCUGUGGUAUAUACCUGGGGCCAUUCUAGGCUCUUUCAAGUGACUU: 0.224
CUGAAGAGGCCUGGGGGGUGGUAUAUGGCCCCUCCCCAUCAGGCGCUAAGGGGACACCCCUUCCCCAGGUCUUUUAUUUGUUUAAGUUAUUUUUGCACAAAUGACUCUUU: 0.43
UCAUCUAUCCUCUAUCUGUAUCAAGCUCACUGCGGAUCCUGCUGUAAAACUGGUGGGUAGCUGGGCUGUCCGUUACCACCACAGCUACAUCUUCUGUUUCUUUGAAUAGA: 0.414

Block 2
Target: Fragile X messenger ribonucleoprotein 1, C-terminal low-complexity region (Fmr1, Mus musculus, UniProt P35922)
Technique: RNA Bind-n-Seq
Form: RNA
Sample: in vitro
Tested at: 200 nM
Setting: whole 134-nt RNA, ends assumed
Together with: 150 mM LiCl
Reference: input library
Reading: higher = stronger binding
Quantity: log2 enrichment
All molecules: 7-deaza-guanosine replaces G
Constant ends, left off below: GGGAGUUCUACAGUCCGACGAUC … UGGAAUUCUCGGGUGUCAAGG
CAAGUCCUGUGCUACACAUCGUAUGUACCGAAUCGGUUUUUUUGGAAAAAGGAGGAAAGUAUUAUGUUACGCCGUUCGGAUCUGCACUUC: -1.56
AGUCCUGUGCUACACAUCGUAUGUACCGAAUCGGGCCCCGGGGCCCCGGGGCCCCGGGAAAGUAUUAUGUUACGCCGUUCGGAUCUGCAC: 0.455
UGGGAGGUGGAUUUUGUUUAUUUUUUUAGCUCAUUUCCAGGGGUGGGAAUUUUUUCUUAAUAUGUGUCAUGAAUAAAGUUGUUUUUGAAA: -0.558
GCAGGAAGUAAAAACAAAUGGAAAUGCUUCGGAUAGUGGCAGGGGUGGGGGAUGCUAAGGAAAGGGUGGGAUGGGAGUGGGUAAAGAGUU: 1.13
GUCCUGUGCUACACAUCGUAUGUACCGAAUCGGGCCCCCGGCCCCCGGGGCCCCCGGGAAAGUAUUAUGUUACGCCGUUCGGAUCUGCAC: -2.88
AAGUCCUGUGCUACACAUCGUAUGUACCGAAUCGGAAAAAAAGGAGGUUUUUUUGGAAAGUAUUAUGUUACGCCGUUCGGAUCUGCACUU: -2.53
CAAGUCCUGUGCUACACAUCGUAUGUACCGAAUCGGGGAAAGGGAAAGGAAAGGGGAAAGUAUUAUGUUACGCCGUUCGGAUCUGCACUU: -0.885
UCCUGUGCUACACAUCGUAUGUACCGAAUCGGGGUUUUUUGGUUUUUUGGGUUUUUUGGAAAGUAUUAUGUUACGCCGUUCGGAUCUGCA: -0.561
UUGCUGUCACCCGCUGCCUGUCUGCAGGAUCCCGGAUUCCGUAUCAGGGGACCGAAAUUAGUCGGAAAAUAGGAAGCAGGUGCUCGCUUG: -1.46
CAAGUCCUGUGCUACACAUCGUAUGUACCGAAUCGGGGAAAGGAAAGGGGAAAGGAAAGUAUUAUGUUACGCCGUUCGGAUCUGCACUUC: -0.432
GCAGGAAGUAAAAACAAAUGGAAAUGCUUUGGAUAGUGGCAGGGGUGGGGGUUGCUAAGGAAAGGGUGGGAUGGGAGUGGGUAAAGAGUU: 1.88

Block 3
Target: Prothrombin, mature alpha-thrombin (F2, Homo sapiens, UniProt P00734)
Technique: aptamer microarray, sandwich
Form: DNA with 2'F-ANA
Sample: in vitro
Tested at: 200 nM
Setting: whole 15-mer aptamer, many near background
Together with: Cy3 exosite-II aptamer, 400 nM
Reading: higher = stronger binding
Quantity: mean fluorescence intensity
Strand: GGTTGGTGTGGTTGG
2'F-ANA at 3 5 8 9 11 12 14: 66.9 a.u.
2'F-ANA at 2 3 4 7 8 9 11 13 14 15: 255 a.u.
2'F-ANA at 4 5 9 11 14 15: 44.8 a.u.
2'F-ANA at 1 2 3 5 8 9 10 11 13 14: 88.9 a.u.
2'F-ANA at 1 2 4 5 7 8 9 10 11 13 14: 46.6 a.u.
2'F-ANA at 3 8 9 10 12 14: 399 a.u.
2'F-ANA at 2 3 8 9 11 12 13 14: 408 a.u.
2'F-ANA at 2 4 9 15: 319 a.u.
2'F-ANA at 3 4 6 8 10 13: 207 a.u.
2'F-ANA at 1 3 5 6 7 10 12 15: 49.5 a.u.
2'F-ANA at 2 3 4 6 8 10 12 13 14: 148 a.u.
2'F-ANA at 3 5 7 9 10 11 12 14: 85 a.u.
2'F-ANA at 4 6 8 12 13 14 15: 93.1 a.u.
2'F-ANA at 2 3 6 7 9 10 13: 290 a.u.
2'F-ANA at 4 5 6 8 10 12 13 14 15: 127 a.u.
2'F-ANA at 1 3 4 5 6 7 11 15: 53.7 a.u.
2'F-ANA at 1 2 6 9 10 14: 135 a.u.
2'F-ANA at 2 3 4 8 9 12: 898 a.u.
2'F-ANA at 1 2 4 6 7 9 10 11 12 13 14: 50.3 a.u.
2'F-ANA at 1 3 7 8 9 10 11 13 14 15: 77.9 a.u.
2'F-ANA at 3 6 11 13 14: 517 a.u.
2'F-ANA at 1 2 3 4 5 6 7 8 14: 47.5 a.u.
2'F-ANA at 2 3 5 7 10 13: 58.9 a.u.
2'F-ANA at 2 3 5 11: 86 a.u.
2'F-ANA at 1 2 4 5 7 8 9 10 12 14 15: 66 a.u.

Block 4
Target: PABPC1L2, full length, GST fusion (mouse, UniProt A0ABA7IW68)
Technique: RNAcompete
Form: RNA
Sample: in vitro
Tested at: 20 nM
Setting: 7-mer, probes averaged, single round
Reference: mean of 7-mers
Reading: higher = stronger binding
Quantity: 7-mer Z-score
Target sequence (chain): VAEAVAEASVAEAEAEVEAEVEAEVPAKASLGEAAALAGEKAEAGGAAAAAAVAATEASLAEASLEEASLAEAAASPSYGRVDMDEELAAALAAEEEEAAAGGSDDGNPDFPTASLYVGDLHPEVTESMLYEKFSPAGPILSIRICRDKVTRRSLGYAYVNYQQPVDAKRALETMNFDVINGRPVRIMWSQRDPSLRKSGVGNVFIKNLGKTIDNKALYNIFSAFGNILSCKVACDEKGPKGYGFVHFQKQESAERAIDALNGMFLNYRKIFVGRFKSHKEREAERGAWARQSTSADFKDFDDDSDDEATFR
AUCGUGG: -0.122
GUCCGCC: -0.423
ACAAGCA: 0.207
CCACCAU: -0.253
CCUCGUU: -0.474
UGAUAGU: -0.15
GUACGAA: -0.0609
GCCGACU: -0.146
CCGAUCC: -0.342
AGGUUAC: -0.0301
GCGGCAA: 0.537
UGGUUCA: -0.18
CCUGACA: -0.121
UCUAUCU: -0.391
AUCCGGU: -0.188
UACCGCA: -0.217

Repeated from above (block 3):
2'F-ANA at 4 5 9 11 14 15: 44.8 a.u.
2'F-ANA at 3 5 8 9 11 12 14: 66.9 a.u.
2'F-ANA at 3 5 7 9 10 11 12 14: 85 a.u.
2'F-ANA at 3 6 11 13 14: 517 a.u.
